Measured values collected from several papers.
“And” joins repeats or separate records; there may be more than shown. Numbers after ± are the reported error. ≈ marks a conversion by molar mass, not a printed value.

Nc1nc(-c2ccc(F)cc2F)nc2[nH]nc(Nc3ccc(F)cc3)c12  IC50 (rhinovirus B48; viral cytopathic effect; HeLa): 2470 nM
CC1(F)CN(C(=O)Cn2c(=O)c(C(=O)NCc3ccc(Cl)cc3)cc3nc(N4CCN(CCN)C4=O)cnc32)C1  EC50 (herpes simplex virus 1; viral cytopathic effect; Vero; 120 h): 1870 nM
c1ccc(CN2CCOCCOCCN(CCCCCCCCCCN3CCOCCOCCN(CCCCCCCCCCN4CCOCCOCCN(Cc5ccccc5)CCOCCOCC4)CCOCCOCC3)CCOCCOCC2)cc1  FIC index (Klebsiella pneumoniae; checkerboard; ATCC BAA-2146; half MIC, added: tetracycline): 0.63
Cc1cc(Cl)cc(S(C)=NC#N)c1NC(=O)c1cc(Br)nn1-c1ncccc1Cl (stereo not shown)  corrected larval mortality (Plutella xylostella; Raphanus sativus field; 50 ppm, 168 h, 10% wettable powder): 90.4%
C=C[C@]1(C)C[C@@H](OC(=O)CSc2ccc(NC(=O)c3ccco3)cc2)[C@]2(C)[C@H](C)CC[C@]3(CCC(=O)[C@H]32)[C@@H](C)[C@@H]1O  lung mycoplasma load reduction (Mycoplasma gallisepticum; infected chickens, lung; intramuscular, 40 mg/kg daily x3, 72 h; relative to: 0 h): 2.03 log10 CFU/mL and 1.29 log10 CFU/mL and 2.8 log10 CFU/mL and 1.9 log10 CFU/mL and 1.57 log10 CFU/mL and 1.88 log10 CFU/mL and 2.25 log10 CFU/mL
C=C1C(=O)OC2C1CCC(C)(O)C13C=CC(C)(C21)C1(C3)C(=O)OC2C3C(C)C(=O)CC3C(=C)CC(OC(C)=O)C21 (stereo not shown)  ROS content (Danio rerio; DCFH-DA; concentration not given, HFD-fed larvae NAFLD model): decreased
COc1ccc(-c2ccc(C3CCCCC3)cc2)cc1OC  hepatic clearance (hepatocyte stability; cryopreserved rat hepatocytes; 1 µM): 18 mL/min/kg
CN(C)S(=O)(=O)c1ccc(S(=O)(=O)N2CCC(n3c(=O)[nH]c4ccccc43)CC2)cc1  lung bacterial burden (Klebsiella pneumoniae; ATCC 700603, mouse lung infection model, lung; 1.5 mg/kg, 24 h): 7.01 log CFU and 5.17 log CFU and 6.09 log CFU and 6.43 log CFU
Nc1nc(-c2ccncc2)nc2[nH]nc(Nc3ccc(F)cc3)c12  IC50 (rhinovirus B48; viral cytopathic effect; HeLa): 8690 nM
Nc1c(C(=O)c2ccc(Br)cc2)sc(S)c1-c1nc2ccccc2s1  viral reduction (herpes simplex virus 1; plaque reduction; non-toxic dose NG, mean over three titres): 26.7%
FC(F)(F)c1cccc(CNc2nc(NC3CCN(Cc4ccccc4)CC3)c3nc[nH]c3n2)c1  log2 fold change (Cryptococcus neoformans; RNA-seq, measured: INP52 (CNAG_01532) mRNA; 48 µg/mL, 3 h; relative to: untreated wild type): -0.368
CN(Cc1ccc(C2(C(F)(F)F)CCC2)cc1)Cc1cccc2ccccc12  inhibition zone (Trichophyton mentagrophytes; microbial growth, disc diffusion; ATCC18748; 0.016 µg/mL, 72 h): 19.2 mm
CC[C@H](C)CCCCC(=O)N[C@@H](CCN)C(=O)N[C@H](C(=O)N[C@@H](CCN)C(=O)N[C@H]1CCNC(=O)[C@H]([C@@H](C)O)NC(=O)[C@H](CCN)NC(=O)[C@H](CCN)NC(=O)[C@H](CC(C)C)NC(=O)[C@@H](CC(C)C)NC(=O)[C@H](CCN)NC1=O)[C@@H](C)O  bacterial load (Klebsiella pneumoniae; BAA-2784, BALB/c mouse peritonitis, liver; dose not given): 9.03 log CFU and 8.64 log CFU and 8.81 log CFU and 8.83 log CFU and 8.72 log CFU
c1ccc(CN2CCOCCOCCN(CCCCCCCCN3CCOCCOCCN(CCCCCCCCN4CCOCCOCCN(Cc5ccccc5)CCOCCOCC4)CCOCCOCC3)CCOCCOCC2)cc1  FIC index (Klebsiella pneumoniae; ATCC BAA-2146; 2.5 µM, added: tetracycline): 1
COC1C=COC2(C)Oc3c(C)c(O)c4c(c3C2=O)C2=NC3(CCN(CC(C)C)CC3)NC2=C(NC(=O)C(C)=CC=CC(C)C(O)C(C)C(O)C(C)C(OC(=O)Nc2cccnn2)C1C)C4=O (stereo not shown)  IC90 (Mycobacteroides abscessus; intracellular growth, Hill fit; THP-1 derived macrophages, ATCC 19977): 370 nM
N#Cc1ccc(Nc2n[nH]c3nc(-c4ccccc4)nc(N)c23)cc1  IC50 (rhinovirus B48; viral cytopathic effect; HeLa): 18800 nM
NCCOCCO.O=C(O)C(Cl)Cl  inhibition (Solanum nigrum; herbicidal activity; 15 mg/mL, 21 days, pre-emergence greenhouse): 0%
Cc1ccc(Nc2n[nH]c3nc(-c4ccccc4)nc(N)c23)cc1  IC50 (rhinovirus B48; viral cytopathic effect; HeLa): 30 nM
Cc1cc(C(=O)Nc2nc3cccc(C)c3n2[C@H]2CCCCN(C(=O)/C=C/CN(C)C)C2)ccn1  minimum cidal concentration (Trypanosoma brucei; wash-off; 6 h): 50 µM
O=C(Nc1ccc([C@H]2[C@@H](F)[C@@H](F)C[C@@H](F)[C@H]2F)cc1)C1CC1(F)F (stereo partly shown)  hepatic clearance (liver microsome stability; human liver microsomes; 1 µM, without NADPH): 4.7 mL/min/kg
CCCC(=O)C#Cc1ccc(F)c(F)c1  mRNA level (Pseudomonas aeruginosa; RT-qPCR, measured: lasB; biofilm cells; 10 µM, 24 h; relative to: untreated): 73%
C[C@@H]1C(=O)O[C@@H](C)/C=C/C=C\[C@@H](C)[C@@H]2C=C[C@@H]3C[C@@]4(C)O[C@H]4[C@@H](C)[C@H]3[C@@H]2C(=O)C(Cl)(Cl)C1=O  MIC (Staphylococcus aureus; MRSA clinical isolate; Resistant, OXA, GEN, ERY, CLI, SXT): 0.05 µg/mL (≈ 0.101 µM)
CC(C)C[C@H](NC(=O)[C@H](Cc1ccc(O)cc1)NC(=O)[C@@H]1CCCN1C(=O)[C@H](CCCNC(=N)N)NC(=O)[C@@H]1CCCN1C(=O)[C@H](CCCCN)NC(=O)[C@H](CC(=O)O)NC(=O)[C@@H]1CCCN1C(=O)[C@H](CCCNC(=N)N)NC(=O)C1(N)CCCCC1)C(=O)N1CCC[C@H]1C(=O)N[C@@H](CCCNC(=N)N)C(=O)N1CCC[C@H]1C(=O)N[C@@H](CCCNC(=N)N)C(=O)N1CCC[C@H]1C(=O)N1CCC[C@H]1C(=O)N[C@@H](CCCNC(=N)N)C(=O)N1CCC[C@H]1C(=O)N[C@H](C(=O)N[C@@H](CCCNC(=N)N)C(=O)N[C@@H](CSc1c(F)c(F)c(SC[C@H](NC(=O)[C@H](CCCNC(=N)N)NC(=O)[C@@H](NC(=O)[C@@H]2CCCN2C(=O)[C@H](CCCNC(=N)N)NC(=O)[C@@H]2CCCN2C(=O)[C@@H]2CCCN2C(=O)[C@H](CCCNC(=N)N)NC(=O)[C@@H]2CCCN2C(=O)[C@H](CCCNC(=N)N)NC(=O)[C@@H]2CCCN2C(=O)[C@H](CC(C)C)NC(=O)[C@H](Cc2ccc(O)cc2)NC(=O)[C@@H]2CCCN2C(=O)[C@H](CCCNC(=N)N)NC(=O)[C@@H]2CCCN2C(=O)[C@H](CCCCN)NC(=O)[C@H](CC(=O)O)NC(=O)[C@@H]2CCCN2C(=O)[C@H](CCCNC(=N)N)NC(=O)C2(N)CCCCC2)C(C)C)C(=O)NN)c(F)c1F)C(=O)NN)C(C)C  MDC (Klebsiella pneumoniae; membrane disruption, propidium iodide uptake; 13883; 90 min, 37 °C): 6.9 ± 0.2 µg/mL
Cc1ccc(C(=O)c2sc(S)c(-c3nc4ccccc4s3)c2N)cc1  viral reduction (herpes simplex virus 1; plaque reduction; non-toxic dose NG, mean over three titres): 10%
COc1cc(Nc2n[nH]c3nc(-c4ccccc4)nc(N)c23)cc(OC)c1OC  IC50 (rhinovirus B48; viral cytopathic effect; HeLa): 1110 nM
Cc1cccc2c1N(C(=O)n1ccnn1)CC2  hypocotyl length (Arabidopsis thaliana; wild type, seedlings; 1 µM, continuous red light, added: 0.3 µM karrikin KAR2): 13.7 mm
C=C(NC(=O)c1csc(-c2nc3c(cc2O)-c2nc(cs2)C(=O)NC(C(C)O)C(=O)NC(=C(C)OC)c2nc(cs2)C(=O)NC2c4nc(cs4)C(=O)NC(COC(=O)c4c5c6c(cccc6n4O)COC(=O)C(OC4CC(C)(O)C(N(C)C)C(C)O4)C2OC5)c2nc-3cs2)n1)C(N)=O (stereo not shown)  MIC50 (Streptococcus pneumoniae): 0.0078 µg/mL (≈ 0.00543 µM)
CCCCCCCCCC(=O)N[C@@H](Cc1c[nH]c2ccccc12)C(=O)N[C@H](CC(N)=O)C(=O)N[C@@H](CC(=O)O)C(=O)N[C@@H]1C(=O)NCC(=O)N[C@@H](CCCNC(=O)OC2/C=C/CCCCC2)C(=O)N[C@@H](CC(=O)O)C(=O)N[C@H](C)C(=O)N[C@@H](CC(=O)O)C(=O)NCC(=O)N[C@H](CO)C(=O)N[C@@H]([C@H](C)CC(=O)O)C(=O)N[C@@H](CC(=O)c2ccccc2N)C(=O)O[C@@H]1C (stereo partly shown)  peak heat flow (Staphylococcus aureus; planktonic bacterial growth, isothermal microcalorimetry; MRSA; 1.5 µg/mL, 24 h, 37 °C): 0 µW
CC(C)(C)NCC(SS(=O)(=O)O)c1ccccc1 (stereo not shown)  female worms recovered (Schistosoma mansoni; mice; 600 mg/kg single dose, dosed day 15, perfused 44): 3 worms per mouse and 1 worms per mouse and 0 worms per mouse and 2 worms per mouse
O=C(Nn1c(-c2cccc(Cl)c2)nc2ccccc2c1=O)c1ccccc1  IC50 (Fasciola hepatica; motility, ex vivo; adult flukes): 2720 ± 210 nM
c1ccc(CN2CCOCCOCCN(CCCCCCCCCCCCCCN3CCOCCOCCN(CCCCCCCCCCCCCCN4CCOCCOCCN(Cc5ccccc5)CCOCCOCC4)CCOCCOCC3)CCOCCOCC2)cc1  FIC index (Klebsiella pneumoniae; checkerboard; ATCC BAA-2146; quarter MIC, added: tetracycline): 0.58
Nc1ncnc2[nH]nc(Nc3ccc(F)c(F)c3)c12  IC50 (rhinovirus B48; viral cytopathic effect; HeLa): 22300 nM
O=c1c(-c2nc3ccccc3s2)cc2c(n1NS(=O)(=O)c1ccccc1)CCCCCC2  plaque reduction (herpes simplex virus 1; viral replication, plaque; Vero; non-toxic dose, mean of three titres): 0%
Nc1nc(-c2ccccc2)nc2[nH]nc(Nc3ccc([N+](=O)[O-])cc3)c12  IC50 (rhinovirus B48; viral cytopathic effect; HeLa): 960 nM
C=CCO/N=C(\C(=O)N[C@@H]1C(=O)N(OS(=O)(=O)O)C1(C)C)c1csc(N)n1  MIC (Enterobacter aerogenes; agar dilution; ATCC 13048, susceptible): 1 µg/mL (≈ 2.38 µM)
Cc1ccc(-c2nc(N)c3c(Nc4ccc(F)cc4)n[nH]c3n2)cc1  IC50 (rhinovirus B48; viral cytopathic effect; HeLa): 1460 nM
CC1(C)[C@H](NC(=O)/C(=N\OCc2cc(=O)c(O)cn2O)c2csc(N)n2)C(=O)N1OS(=O)(=O)O  MIC (Klebsiella pneumoniae; agar dilution; 16-14 ESBL): 0.5 µg/mL (≈ 0.964 µM)

Repeated from above:
CC(C)C[C@H](NC(=O)[C@H](Cc1ccc(O)cc1)NC(=O)[C@@H]1CCCN1C(=O)[C@H](CCCNC(=N)N)NC(=O)[C@@H]1CCCN1C(=O)[C@H](CCCCN)NC(=O)[C@H](CC(=O)O)NC(=O)[C@@H]1CCCN1C(=O)[C@H](CCCNC(=N)N)NC(=O)C1(N)CCCCC1)C(=O)N1CCC[C@H]1C(=O)N[C@@H](CCCNC(=N)N)C(=O)N1CCC[C@H]1C(=O)N[C@@H](CCCNC(=N)N)C(=O)N1CCC[C@H]1C(=O)N1CCC[C@H]1C(=O)N[C@@H](CCCNC(=N)N)C(=O)N1CCC[C@H]1C(=O)N[C@H](C(=O)N[C@@H](CCCNC(=N)N)C(=O)N[C@@H](CSc1c(F)c(F)c(SC[C@H](NC(=O)[C@H](CCCNC(=N)N)NC(=O)[C@@H](NC(=O)[C@@H]2CCCN2C(=O)[C@H](CCCNC(=N)N)NC(=O)[C@@H]2CCCN2C(=O)[C@@H]2CCCN2C(=O)[C@H](CCCNC(=N)N)NC(=O)[C@@H]2CCCN2C(=O)[C@H](CCCNC(=N)N)NC(=O)[C@@H]2CCCN2C(=O)[C@H](CC(C)C)NC(=O)[C@H](Cc2ccc(O)cc2)NC(=O)[C@@H]2CCCN2C(=O)[C@H](CCCNC(=N)N)NC(=O)[C@@H]2CCCN2C(=O)[C@H](CCCCN)NC(=O)[C@H](CC(=O)O)NC(=O)[C@@H]2CCCN2C(=O)[C@H](CCCNC(=N)N)NC(=O)C2(N)CCCCC2)C(C)C)C(=O)NN)c(F)c1F)C(=O)NN)C(C)C  MDC (Klebsiella pneumoniae; membrane disruption, propidium iodide uptake; 13883; 90 min, 37 °C): 6.9 ± 0.2 µg/mL
COC1C=COC2(C)Oc3c(C)c(O)c4c(c3C2=O)C2=NC3(CCN(CC(C)C)CC3)NC2=C(NC(=O)C(C)=CC=CC(C)C(O)C(C)C(O)C(C)C(OC(=O)Nc2cccnn2)C1C)C4=O (stereo not shown)  IC90 (Mycobacteroides abscessus; intracellular growth, Hill fit; THP-1 derived macrophages, ATCC 19977): 370 nM
CC1(C)[C@H](NC(=O)/C(=N\OCc2cc(=O)c(O)cn2O)c2csc(N)n2)C(=O)N1OS(=O)(=O)O  MIC (Klebsiella pneumoniae; agar dilution; 16-14 ESBL): 0.5 µg/mL (≈ 0.964 µM)
C[C@@H]1C(=O)O[C@@H](C)/C=C/C=C\[C@@H](C)[C@@H]2C=C[C@@H]3C[C@@]4(C)O[C@H]4[C@@H](C)[C@H]3[C@@H]2C(=O)C(Cl)(Cl)C1=O  MIC (Staphylococcus aureus; MRSA clinical isolate; Resistant, OXA, GEN, ERY, CLI, SXT): 0.05 µg/mL (≈ 0.101 µM)
CC1(F)CN(C(=O)Cn2c(=O)c(C(=O)NCc3ccc(Cl)cc3)cc3nc(N4CCN(CCN)C4=O)cnc32)C1  EC50 (herpes simplex virus 1; viral cytopathic effect; Vero; 120 h): 1870 nM
